Results collected from several papers.
Each numbered part is a random draw from the data of one study; scales do not carry over between parts.
Sequence of UniProt P42336 (whole entry, unmodified, looked up): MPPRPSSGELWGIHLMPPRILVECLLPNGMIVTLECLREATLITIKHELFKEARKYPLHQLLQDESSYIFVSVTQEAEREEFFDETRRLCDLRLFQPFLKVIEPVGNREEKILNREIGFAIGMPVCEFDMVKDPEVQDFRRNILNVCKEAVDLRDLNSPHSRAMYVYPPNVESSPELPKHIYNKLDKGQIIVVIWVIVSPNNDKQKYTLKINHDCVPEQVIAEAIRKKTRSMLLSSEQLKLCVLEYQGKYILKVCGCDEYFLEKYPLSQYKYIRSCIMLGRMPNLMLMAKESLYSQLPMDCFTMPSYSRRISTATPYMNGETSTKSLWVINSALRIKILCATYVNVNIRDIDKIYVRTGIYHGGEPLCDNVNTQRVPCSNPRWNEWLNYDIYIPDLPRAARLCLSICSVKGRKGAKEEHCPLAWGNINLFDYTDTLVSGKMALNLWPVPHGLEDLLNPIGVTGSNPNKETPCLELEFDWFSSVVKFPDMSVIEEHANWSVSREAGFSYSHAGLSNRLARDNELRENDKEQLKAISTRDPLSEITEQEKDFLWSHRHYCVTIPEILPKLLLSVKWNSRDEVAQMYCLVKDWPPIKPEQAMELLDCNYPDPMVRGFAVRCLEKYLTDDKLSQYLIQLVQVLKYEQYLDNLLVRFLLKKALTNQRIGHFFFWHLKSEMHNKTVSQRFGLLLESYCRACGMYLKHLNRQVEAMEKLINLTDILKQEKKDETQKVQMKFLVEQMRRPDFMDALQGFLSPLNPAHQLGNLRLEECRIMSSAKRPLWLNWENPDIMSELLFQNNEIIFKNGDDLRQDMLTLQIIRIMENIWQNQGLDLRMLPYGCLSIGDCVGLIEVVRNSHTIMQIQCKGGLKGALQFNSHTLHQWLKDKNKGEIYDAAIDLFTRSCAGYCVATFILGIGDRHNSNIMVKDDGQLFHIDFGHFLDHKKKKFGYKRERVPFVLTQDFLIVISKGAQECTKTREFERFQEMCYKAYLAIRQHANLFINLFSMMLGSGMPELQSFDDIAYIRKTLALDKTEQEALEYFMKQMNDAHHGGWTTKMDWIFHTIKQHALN
Sequence of UniProt Q8NFD2 (whole entry, looked up): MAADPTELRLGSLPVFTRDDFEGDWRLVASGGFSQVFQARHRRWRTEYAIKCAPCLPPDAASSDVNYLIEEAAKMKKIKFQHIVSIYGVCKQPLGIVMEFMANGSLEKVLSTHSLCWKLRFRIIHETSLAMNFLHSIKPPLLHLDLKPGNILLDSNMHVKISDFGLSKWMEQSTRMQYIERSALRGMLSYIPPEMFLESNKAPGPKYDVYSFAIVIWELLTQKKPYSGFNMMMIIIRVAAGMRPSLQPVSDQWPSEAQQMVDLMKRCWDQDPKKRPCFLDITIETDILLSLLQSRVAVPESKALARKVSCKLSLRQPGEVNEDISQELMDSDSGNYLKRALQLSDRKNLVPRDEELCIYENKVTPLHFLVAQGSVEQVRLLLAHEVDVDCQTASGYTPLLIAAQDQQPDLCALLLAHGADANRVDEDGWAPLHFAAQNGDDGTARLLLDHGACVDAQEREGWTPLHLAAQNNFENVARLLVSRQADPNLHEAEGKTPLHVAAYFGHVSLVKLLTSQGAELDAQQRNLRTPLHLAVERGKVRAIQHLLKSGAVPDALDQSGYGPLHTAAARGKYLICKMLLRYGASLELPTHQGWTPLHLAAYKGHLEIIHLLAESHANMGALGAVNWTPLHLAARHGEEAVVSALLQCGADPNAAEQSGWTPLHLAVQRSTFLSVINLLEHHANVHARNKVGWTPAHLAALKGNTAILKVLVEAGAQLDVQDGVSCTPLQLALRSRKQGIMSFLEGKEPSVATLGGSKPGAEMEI
Sequence of UniProt P11802 (whole entry, looked up): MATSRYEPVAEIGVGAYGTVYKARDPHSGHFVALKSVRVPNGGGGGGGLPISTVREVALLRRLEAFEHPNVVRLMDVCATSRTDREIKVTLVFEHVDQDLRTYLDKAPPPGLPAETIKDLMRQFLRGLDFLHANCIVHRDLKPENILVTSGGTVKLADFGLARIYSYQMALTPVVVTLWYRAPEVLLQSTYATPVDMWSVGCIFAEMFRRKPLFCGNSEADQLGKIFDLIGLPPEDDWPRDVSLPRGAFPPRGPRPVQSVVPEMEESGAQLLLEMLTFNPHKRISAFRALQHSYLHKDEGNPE
Sequence of UniProt Q92918 (whole entry, looked up): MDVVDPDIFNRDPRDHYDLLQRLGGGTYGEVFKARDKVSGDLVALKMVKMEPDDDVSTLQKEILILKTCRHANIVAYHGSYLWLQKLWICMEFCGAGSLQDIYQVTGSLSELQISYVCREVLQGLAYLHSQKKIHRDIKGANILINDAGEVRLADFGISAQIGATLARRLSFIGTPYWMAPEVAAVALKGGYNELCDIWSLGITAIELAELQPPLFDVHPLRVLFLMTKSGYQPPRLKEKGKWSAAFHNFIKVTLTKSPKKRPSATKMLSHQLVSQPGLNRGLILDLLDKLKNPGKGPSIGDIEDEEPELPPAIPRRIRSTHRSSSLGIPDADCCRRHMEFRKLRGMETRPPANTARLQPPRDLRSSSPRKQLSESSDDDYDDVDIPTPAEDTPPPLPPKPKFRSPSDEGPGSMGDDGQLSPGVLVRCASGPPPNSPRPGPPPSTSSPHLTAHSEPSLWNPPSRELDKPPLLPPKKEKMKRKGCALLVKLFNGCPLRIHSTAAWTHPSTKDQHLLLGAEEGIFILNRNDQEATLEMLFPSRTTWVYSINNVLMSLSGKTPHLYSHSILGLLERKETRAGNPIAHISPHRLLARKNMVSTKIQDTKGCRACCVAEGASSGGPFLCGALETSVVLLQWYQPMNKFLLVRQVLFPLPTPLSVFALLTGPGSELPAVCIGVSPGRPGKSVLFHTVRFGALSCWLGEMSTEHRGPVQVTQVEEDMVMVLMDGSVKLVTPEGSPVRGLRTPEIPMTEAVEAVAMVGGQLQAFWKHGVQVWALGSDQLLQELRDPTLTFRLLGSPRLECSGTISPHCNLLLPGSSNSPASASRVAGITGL
Sequence of UniProt O14757 (whole entry, looked up): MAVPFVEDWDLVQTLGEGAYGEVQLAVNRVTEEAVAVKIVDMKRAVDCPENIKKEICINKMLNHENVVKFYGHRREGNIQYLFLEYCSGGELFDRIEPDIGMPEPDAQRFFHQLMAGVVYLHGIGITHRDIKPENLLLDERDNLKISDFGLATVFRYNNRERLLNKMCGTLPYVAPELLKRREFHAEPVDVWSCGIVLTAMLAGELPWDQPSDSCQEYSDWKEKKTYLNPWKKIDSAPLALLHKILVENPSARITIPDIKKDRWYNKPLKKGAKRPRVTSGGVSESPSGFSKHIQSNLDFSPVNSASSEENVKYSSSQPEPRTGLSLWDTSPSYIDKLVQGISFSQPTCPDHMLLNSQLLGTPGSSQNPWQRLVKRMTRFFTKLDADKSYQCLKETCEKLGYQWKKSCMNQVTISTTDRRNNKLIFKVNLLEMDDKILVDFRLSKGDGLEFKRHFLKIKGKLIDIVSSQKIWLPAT
Sequence of UniProt Q99640 (whole entry, looked up): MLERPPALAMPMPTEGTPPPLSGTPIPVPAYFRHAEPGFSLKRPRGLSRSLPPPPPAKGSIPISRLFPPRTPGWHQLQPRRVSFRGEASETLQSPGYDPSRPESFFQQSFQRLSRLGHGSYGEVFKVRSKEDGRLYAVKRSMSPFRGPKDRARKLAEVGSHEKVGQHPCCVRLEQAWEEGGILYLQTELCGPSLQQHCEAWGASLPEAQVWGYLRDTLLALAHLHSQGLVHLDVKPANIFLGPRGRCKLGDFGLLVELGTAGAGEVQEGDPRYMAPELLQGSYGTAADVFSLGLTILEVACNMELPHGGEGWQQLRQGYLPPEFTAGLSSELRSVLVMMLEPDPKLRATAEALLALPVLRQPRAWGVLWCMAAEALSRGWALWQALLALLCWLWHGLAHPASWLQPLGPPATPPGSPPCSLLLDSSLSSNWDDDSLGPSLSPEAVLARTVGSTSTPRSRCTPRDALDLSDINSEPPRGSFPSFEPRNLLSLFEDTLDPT
Sequence of UniProt P21127 (whole entry, looked up): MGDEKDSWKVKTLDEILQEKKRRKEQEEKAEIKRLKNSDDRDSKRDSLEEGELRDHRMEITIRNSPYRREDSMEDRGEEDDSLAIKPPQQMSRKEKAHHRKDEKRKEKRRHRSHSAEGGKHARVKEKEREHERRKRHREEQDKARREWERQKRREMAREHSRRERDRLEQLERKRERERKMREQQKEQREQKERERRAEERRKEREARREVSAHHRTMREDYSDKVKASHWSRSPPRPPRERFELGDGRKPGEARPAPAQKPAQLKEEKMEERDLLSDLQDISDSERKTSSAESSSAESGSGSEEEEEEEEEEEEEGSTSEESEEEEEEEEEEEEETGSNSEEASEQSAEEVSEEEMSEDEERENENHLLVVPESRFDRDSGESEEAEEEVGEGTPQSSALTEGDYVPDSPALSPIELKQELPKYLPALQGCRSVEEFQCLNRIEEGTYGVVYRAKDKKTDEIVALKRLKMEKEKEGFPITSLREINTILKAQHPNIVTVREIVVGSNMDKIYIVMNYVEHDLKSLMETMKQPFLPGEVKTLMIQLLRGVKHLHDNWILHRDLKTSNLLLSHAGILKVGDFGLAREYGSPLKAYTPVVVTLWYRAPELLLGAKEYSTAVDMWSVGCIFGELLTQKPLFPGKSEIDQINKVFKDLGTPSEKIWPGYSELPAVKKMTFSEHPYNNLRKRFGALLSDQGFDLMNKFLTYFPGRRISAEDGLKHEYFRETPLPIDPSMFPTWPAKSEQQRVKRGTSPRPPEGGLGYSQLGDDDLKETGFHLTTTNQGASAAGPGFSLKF

Block 1
Target: Transcriptional repressor CTCF (CTCF, Homo sapiens, UniProt P49711, residues 1-727, full length assumed)
Technique: protein-binding microarray
Form: double-stranded DNA, one strand shown
Medium: in vitro
Tested at: not given
Notes: k-mer, scored over probes, only values ≥0.25
Reading: higher = stronger binding
Target sequence (chain): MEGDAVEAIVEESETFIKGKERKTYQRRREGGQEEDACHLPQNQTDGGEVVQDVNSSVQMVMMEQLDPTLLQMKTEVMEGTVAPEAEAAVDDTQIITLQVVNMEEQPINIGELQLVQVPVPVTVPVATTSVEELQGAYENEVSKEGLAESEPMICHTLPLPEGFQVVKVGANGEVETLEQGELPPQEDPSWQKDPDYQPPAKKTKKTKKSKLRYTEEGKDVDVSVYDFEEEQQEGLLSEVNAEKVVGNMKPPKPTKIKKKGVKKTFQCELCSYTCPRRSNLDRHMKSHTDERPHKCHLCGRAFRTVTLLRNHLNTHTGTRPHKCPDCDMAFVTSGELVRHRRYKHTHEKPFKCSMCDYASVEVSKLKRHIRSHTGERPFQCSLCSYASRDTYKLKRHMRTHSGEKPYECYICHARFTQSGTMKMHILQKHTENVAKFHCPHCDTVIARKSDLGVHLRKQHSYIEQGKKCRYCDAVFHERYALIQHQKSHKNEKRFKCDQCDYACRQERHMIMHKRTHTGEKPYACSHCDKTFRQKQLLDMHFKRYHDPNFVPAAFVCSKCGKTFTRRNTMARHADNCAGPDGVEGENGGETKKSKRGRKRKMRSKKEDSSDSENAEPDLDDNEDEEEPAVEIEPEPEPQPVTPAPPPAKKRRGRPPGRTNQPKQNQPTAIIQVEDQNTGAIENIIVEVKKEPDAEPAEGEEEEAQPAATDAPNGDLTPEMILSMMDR
Oligonucleotide | E-score
ATTACGCG | 0.295
AATATAAG | 0.342
AATTTACT | 0.253
AAATTATC | 0.338
ATAATTTG | 0.292
CGCCACAA | 0.257
TAATGCTA | 0.311
ATTTACTG | 0.26

Block 2
Target: Serine/threonine-protein kinase pim-2 (PIM2, Homo sapiens, UniProt Q9P1W9)
Sequence of UniProt Q9P1W9 (whole entry, looked up): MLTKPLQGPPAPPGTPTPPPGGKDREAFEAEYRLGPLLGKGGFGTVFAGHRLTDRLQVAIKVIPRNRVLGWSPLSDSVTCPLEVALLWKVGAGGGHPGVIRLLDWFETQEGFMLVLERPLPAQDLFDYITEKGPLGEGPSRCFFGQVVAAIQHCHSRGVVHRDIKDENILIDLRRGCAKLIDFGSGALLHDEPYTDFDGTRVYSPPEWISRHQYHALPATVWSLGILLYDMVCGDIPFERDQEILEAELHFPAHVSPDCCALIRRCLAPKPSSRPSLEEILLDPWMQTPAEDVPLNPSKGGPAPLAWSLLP
Effect on: enzyme activity
Mode: inhibitor
Tested at: 0.5 µM
Reference: control
Structure (SMILES) | remaining activity [%]
NC(=O)c1ccc(-c2nc(-c3ccc4c(c3)OCCO4)c(-c3ccccn3)[nH]2)cc1 | 103
N#CC(c1ccnc(NCCc2cccnc2)n1)c1nc2ccccc2s1 (stereo not drawn) | 91.2
O=C(O)/C=C/c1cc(Br)c(Br)c(Br)c1Br | 52.8
C[C@@H](N)[C@H]1CC[C@H](C(=O)Nc2ccncc2)CC1 | 95.8
N#C/C(=C(/N)SC1C=CC=CC1)c1cccc(C(O)c2ccncc2)c1 (stereo not drawn) | 105
O=Nc1c(-c2c(O)[nH]c3ccccc23)[nH]c2ccccc12 | 106
Clc1ccc(Nc2nnc(Cc3ccncc3)c3ccccc23)cc1 | 95.8
O=C1NC(=O)/C(=C/c2ccc3c(c2)OC(F)(F)O3)S1 | 91.9
c1cc(-c2cnn3cc(-c4ccc(OCCN5CCCCC5)cc4)cnc23)ccn1 | 112
CC(C)(C)c1nc2c3cc[nH]c(=O)c3c3cc(F)ccc3c2[nH]1 | 90.8
CC(C)N(CCC(=O)c1ccc2ccccc2c1)Cc1ccccc1 | 104

Block 3
SMILES: Cc1noc([C@H]2C[C@@H](c3ccc(C(F)(F)F)cc3)CN(C(=O)N3CCS(=O)(=O)C3)C2)n1
Effect on: cell-free assay
Technique: competition with immobilised ligand
Tested at: 1 µM
target | remaining binding
Serine/threonine-protein kinase Sgk1 (SGK1, Homo sapiens, UniProt O00141) | 100%
Casein kinase II subunit alpha (CSNK2A1, Homo sapiens, UniProt P68400) | 86%
Mitogen-activated protein kinase 3 (MAPK3, Homo sapiens, UniProt P27361) | 100%
Membrane-associated tyrosine- and threonine-specific cdc2-inhibitory kinase (PKMYT1, Homo sapiens, UniProt Q99640) | 100%
Tyrosine-protein kinase JAK1, JH2 (JAK1, Homo sapiens, UniProt P23458) | 74%
Cyclin-dependent kinase 4 (CDK4, Homo sapiens, UniProt P11802) | 100%
Phosphatidylinositol 4,5-bisphosphate 3-kinase catalytic subunit alpha isoform (PIK3CA, Homo sapiens, UniProt P42336, E545A) | 64%
Epidermal growth factor receptor (EGFR, Homo sapiens, UniProt P00533, G719C) | 100%
cAMP-dependent protein kinase catalytic subunit beta (PRKACB, Homo sapiens, UniProt P22694) | 100%
Cyclin-dependent kinase 5 (CDK5, Homo sapiens, UniProt Q00535) | 100%
Serine/threonine-protein kinase Chk1 (CHEK1, Homo sapiens, UniProt O14757) | 100%
Serine/threonine-protein kinase 24 (STK24, Homo sapiens, UniProt Q9Y6E0) | 100%
Ankyrin repeat and protein kinase domain-containing protein 1 (ANKK1, Homo sapiens, UniProt Q8NFD2) | 100%
Mitogen-activated protein kinase kinase kinase kinase 1 (MAP4K1, Homo sapiens, UniProt Q92918) | 100%
Cyclin-dependent kinase 11B (CDK11B, Homo sapiens, UniProt P21127) | 100%
cAMP-dependent protein kinase catalytic subunit alpha (PRKACA, Homo sapiens, UniProt P17612) | 100%

Mixed results
SMILES | test | system | setting | measurement | result
CC(C)n1cnc(-c2ccc(F)cc2)c1-c1ncc(C(=O)Nc2ccc(N3CCN(C)CC3)cc2)[nH]1 | phase 2a trial | idiopathic pulmonary fibrosis patients | all arms, grade 4 emergent event | patients with respiratory failure | 0%
